# Measurements of several laboratories.
# Each numbered part is a random draw from the data of one study; scales do not carry over between parts.

# Block 1 — method: protein binding microarray; form: double-stranded DNA, one strand shown; medium: in vitro; concentration: not given; baseline: not given; reading: higher = stronger binding
# Target: Histone acetyltransferase KAT6A, both winged helices, GST fusion (KAT6A, Homo sapiens, UniProt Q92794, residues 1-181)
# Notes: 8-mer, flanks averaged, mean of 2 arrays, mostly near background
# Residues (chain): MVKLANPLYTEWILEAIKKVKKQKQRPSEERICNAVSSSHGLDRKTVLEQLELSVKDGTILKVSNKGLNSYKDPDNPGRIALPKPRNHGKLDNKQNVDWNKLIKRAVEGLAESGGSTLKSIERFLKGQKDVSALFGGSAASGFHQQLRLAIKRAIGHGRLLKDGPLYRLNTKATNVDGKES
Strand,E-score
CTCCAATA,-0.0504
CAGGGGTC,-0.141
GACTCGGC,0.115
ATCGTCCA,0.00155
ACATCCAG,-0.0456
CGCGGCCA,0.324
ATTGAGCC,-0.0374
ACTAGTGC,0.0491
CGTTGACC,0.043
AGTACGGA,0.22
AAGTAACG,-0.0784
AGTTCAGG,-0.14
AATCTCTC,-0.118
CGGTCCTA,0.0525
CACGCGGC,0.261
ATCGGACC,0.109
CCTTTAAA,-0.0927
ATGGGCTG,-0.174
ATCTTGCC,0.0324
CTGCCCCC,-0.142
ATGTCTGC,-0.0193
AAAGGGTT,-0.0516
CGGAATAC,0.128
AAGGTCAA,-0.119
CTTAATTC,-0.176

# Block 2 — method: RNA Bind-n-Seq; form: RNA; medium: in vitro; concentration: not given; baseline: input RNA pool; reading: higher = stronger binding
# Target: RING finger protein unkempt homolog, zinc fingers 1-6, GST-SBP tag (UNK, Homo sapiens, UniProt Q9C0B0, residues 30-357)
# Notes: RNA with constant flanks, human and mouse sites, ends assumed
# Construct (chain): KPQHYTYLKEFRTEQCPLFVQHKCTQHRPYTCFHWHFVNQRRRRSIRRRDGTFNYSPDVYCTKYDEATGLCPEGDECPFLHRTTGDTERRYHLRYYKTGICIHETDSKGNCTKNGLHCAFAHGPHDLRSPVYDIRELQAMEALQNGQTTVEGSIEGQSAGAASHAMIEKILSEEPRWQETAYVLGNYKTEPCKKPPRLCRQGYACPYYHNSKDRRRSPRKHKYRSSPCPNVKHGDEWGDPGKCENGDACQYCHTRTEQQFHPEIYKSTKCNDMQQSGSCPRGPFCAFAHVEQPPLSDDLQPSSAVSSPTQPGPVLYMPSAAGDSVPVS
Strand,bound/input enrichment
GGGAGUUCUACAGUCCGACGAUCAGGAUAUCUGGUGCAUUAUUCACUAAUGACAAAUUCCAGGUCAGCACAAAUAAAUUGACGUUUAUGGAUCUUGAGCUAAAAUUGAAAGAUAAGAACACCCUUUUUACAAGGAUUUUAAAUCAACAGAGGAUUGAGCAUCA,0.229 ratio
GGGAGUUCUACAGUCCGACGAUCGAAAAAAACUCGAAACAAUCCCAAUGACAAUUGUGGUAACAACUCUUUAUUUUAUGGAUAUUUGUUCAUAAUGUUAAAACAAACGAAGACUUCAUAUUUAAUAUAUUUUUUACAUAACCUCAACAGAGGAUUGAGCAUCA,1.57 ratio
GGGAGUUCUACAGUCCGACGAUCGAAUACUCCAAAUCCUAAAUUACACUGAGAUCUAGACCUUCAUUUGGCAGGGUCAGGCCAUUGGAUGGUGUUGCUGUAUUGUCUUGUCGUGUUUUUAAAAUCUGUGCACUUUGUCCAAAGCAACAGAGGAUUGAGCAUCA,0.238 ratio
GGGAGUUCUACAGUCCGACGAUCCAAAUUUGAUGUUUCGUCAGAGUUACUAGAGUGGAUUUGGCAUGAUAACAUGCAGUUUCUUCAAGACAAAAACAUUUUUGAACAUACAUAUUUUGGAUUUAUGUGGCAAUUGUGUAGUUGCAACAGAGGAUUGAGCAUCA,0.286 ratio
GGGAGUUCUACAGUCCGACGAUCUCUUUUCCUCUGUAUUUACAUAUACUUUAUGUAUCAAGUGUGUGUGUGUAUGUGUGUGCUUUUAGCUCCAAGCAAACCUGAGUUUGGAUAAAGGGGAACUAAACUACAAAUUAUGUCUAUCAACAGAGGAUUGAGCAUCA,0.182 ratio
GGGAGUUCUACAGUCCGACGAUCGAUGGCCUUACUAAGUUUUUUACACCAUCACCUGAUGGUCGCAGAUCCCGAGGUGAAAUAAUAGACUUUUCAAAGCACUAUCGUCCAAGGAAAAAGGUCUCUCAGAAACAGUCAUGCACUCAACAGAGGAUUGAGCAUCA,0.134 ratio
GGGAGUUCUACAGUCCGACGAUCCUGUACCAGAAAGACUUCCUGCGCAUCGCGGGCCUGUGUCAGGACACUGCUCAGAGCUACACGUUUGGGUGUGGCCAUGAACUGGAUGAGAGCGGUCUCUACUGCAACAGCUGCCUGGCUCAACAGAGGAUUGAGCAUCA,0.0995 ratio
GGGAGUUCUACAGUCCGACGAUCCUUAUGGGAAUGUGGGAUGGAGCUCACCUUACCUACUCUCUUAAGAUAAUGACUCAAAUUAAGCUUUUUGGACACCACUUUUGUGGGGAUACACAUACGCUGAUCUAGAAAUGAAAGGUGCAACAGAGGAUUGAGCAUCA,0.762 ratio

# Block 3 — method: universal PBM; form: double-stranded DNA, one strand shown; medium: in vitro; concentration: 600 nM; reading: higher = stronger binding
# Target: Sal-like protein 4, full length isoform A (SALL4, Homo sapiens, UniProt Q9UJQ4, residues 1-1053)
# UniProt Q9UJQ4, sequence (whole entry, looked up): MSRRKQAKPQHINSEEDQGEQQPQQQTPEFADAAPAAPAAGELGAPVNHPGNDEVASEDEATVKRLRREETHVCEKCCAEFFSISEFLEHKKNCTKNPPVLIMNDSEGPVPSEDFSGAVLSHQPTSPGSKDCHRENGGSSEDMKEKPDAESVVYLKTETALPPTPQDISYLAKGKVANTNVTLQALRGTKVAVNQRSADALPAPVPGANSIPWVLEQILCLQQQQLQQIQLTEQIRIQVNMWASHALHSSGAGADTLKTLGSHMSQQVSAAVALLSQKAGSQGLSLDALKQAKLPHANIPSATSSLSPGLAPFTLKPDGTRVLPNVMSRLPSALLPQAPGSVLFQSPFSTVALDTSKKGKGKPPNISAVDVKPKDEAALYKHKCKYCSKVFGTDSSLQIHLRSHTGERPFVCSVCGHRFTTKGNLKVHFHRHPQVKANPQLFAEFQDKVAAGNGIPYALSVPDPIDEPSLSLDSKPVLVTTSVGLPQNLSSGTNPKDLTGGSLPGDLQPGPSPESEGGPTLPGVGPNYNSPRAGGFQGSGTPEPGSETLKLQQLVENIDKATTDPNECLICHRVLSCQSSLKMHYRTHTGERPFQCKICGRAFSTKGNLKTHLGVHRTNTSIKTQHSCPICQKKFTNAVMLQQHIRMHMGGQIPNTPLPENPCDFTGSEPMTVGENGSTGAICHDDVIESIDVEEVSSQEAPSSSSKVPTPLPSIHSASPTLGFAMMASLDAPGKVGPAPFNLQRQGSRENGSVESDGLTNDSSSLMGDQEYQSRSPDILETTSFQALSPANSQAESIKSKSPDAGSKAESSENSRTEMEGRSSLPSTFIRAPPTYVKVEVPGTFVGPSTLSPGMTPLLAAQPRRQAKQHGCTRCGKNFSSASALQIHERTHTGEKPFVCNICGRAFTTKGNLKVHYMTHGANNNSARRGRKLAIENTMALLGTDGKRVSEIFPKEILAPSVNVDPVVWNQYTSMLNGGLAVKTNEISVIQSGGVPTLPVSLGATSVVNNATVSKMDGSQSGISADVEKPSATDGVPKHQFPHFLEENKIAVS
# Notes: 8-mer, flanks averaged, mean of replicates
Strand,E-score
ATTAATGA,0.375
GCGTCTAC,-0.248
ATGACCCA,0.106
AGCGTGAG,-0.195
ACCCCCAG,-0.195
AGGTTGAA,0.113
AACAAATT,0.33
ACTTCTGC,0.0137
GGGACCTA,-0.206
CGAGCACA,-0.0221
CCGCCAAC,-0.311
ACGAGCTG,-0.126
CGACGGCC,-0.289
ATTCTTGA,0.275
GTTCGGCA,0.0381
GTTACAGA,0.0162
CTAAGGGC,-0.262
AAGCCAAC,0.0957
GCTTCAGA,-0.00449
CCAACTGG,-0.149
AACCGTAT,-0.0622
AAGCTTAT,0.227
CACAGTCG,-0.105
ATGTGATA,0.265

# Block 4 — method: RNA Bind-n-Seq; form: RNA; medium: in vitro; concentration: 365 nM; baseline: no-protein control; reading: higher = stronger binding
# Target: RNA binding protein fox-1 homolog 2, RRM domain, GST-SBP tag (RBFOX2, Homo sapiens, UniProt O43251-10, residues 100-194)
# Notes: natural RNA segment, single round, ends assumed
# Target sequence (chain): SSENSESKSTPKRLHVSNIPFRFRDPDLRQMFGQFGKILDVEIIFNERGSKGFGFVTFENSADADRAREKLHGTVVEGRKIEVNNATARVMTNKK
Strand,RBNS enrichment (R)
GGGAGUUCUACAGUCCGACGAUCGGAGAAAGGUUGAGAUAAGAAUGUCCCAUGGAGUGCCGUGGGCAACAGUGGCCCUUCAUGGGAACAAUCUGUUGGAGCAGGGGGUCAGUUCUCUGCUGGGAAUCUACCCCUGGAAUUCUCGGGUGCCAA,0.345
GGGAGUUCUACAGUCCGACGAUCACAGUUUCUAAAUAUAUGAUUUGUUGUUGAGAGAAAACAGUGAUUGUUAAUUAUGGCUUUUACUUCAUUUUAGAAAAGCACUAGAAAUUCUAAAUUUACUUUUCCUCUAGUGGAAUUCUCGGGUGCCAA,1.04
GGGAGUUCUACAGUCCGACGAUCGACAUUUUUCCCUAUUUUCCUCACUUUAUGGAAGAGUUAAAACAUUUCUAAACCAGAGGACAAAAGGGGUUAAUGUUACUUUAAAAUUACAUUCUAUAUAUAUAUAAAUAUGGAAUUCUCGGGUGCCAA,0.854
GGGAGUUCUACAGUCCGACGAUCGAGCUUUCUCUCGUGCAGUUUCAUCAGAGGUUUGGGAGGAGGGCAAGUGGCCGCUAGAGAAGAAUACAAUUUAGCAGCAACUGCCGGCUCUUUGGGCAGAGGUUUGAUUUUGGAAUUCUCGGGUGCCAA,0.539
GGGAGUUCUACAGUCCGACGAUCAAGCAUGUCCAACUUCUGUCCAGAUGACAUUAAAACCAAAGCCUAAUUGUUAAGCCUCUUAUUCUAAAGUCCAUAGCAAUGCUAUGGAAUAUCAAGUAUAAUGAUGUAGUUGGAAUUCUCGGGUGCCAA,1.51
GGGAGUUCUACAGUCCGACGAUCUAUUUUGUACUGUAAUGAAUGUGAGUCACUCAGCUGCUUACCUGAACAUAACCUUAUGCUGCCCUUGGCUUGGCCACAUUUGUUAAAUCCUUAUUAUAUUGAUACUCUUCUGGAAUUCUCGGGUGCCAA,0.726
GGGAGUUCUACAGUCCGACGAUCUUUCAGCUUAUGGGUAUUUAUCUUCUAUUAGUAUUUGUAUCUUCAGUUCAUUCCACUUUAGGAAACAGAGCUGCCAAUUGAAACAGAAGAAGAAAAAAAAAAAAAGCAGCUGGAAUUCUCGGGUGCCAA,0.678
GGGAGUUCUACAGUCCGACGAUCCGGAAGUGGUUUCAGGCCCUCUAGUUGCCAUGACCAAUUUGUGUGUGUGUUUAAUUUUUGCUUCAAGCUCUGUAGCAGGACCUGCCCCACGCACACCCCUACCCCUCUGUUGGAAUUCUCGGGUGCCAA,0.279
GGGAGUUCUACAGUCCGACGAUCUUGGAGAAAUUUUAGACAGCAGCUCUGUGUUCUUUUUUUGCCGCAGCCAAUAAGAUAAUAGCAGAAUUAGCCAAUCCUAAAACCUUCUAAAGACGAUUUUUGAGCAUCCCUGGAAUUCUCGGGUGCCAA,0.396
